Measurements gathered from unrelated publications.
Numbered parts are unrelated; each lists some results of a single study.

Series 1
Target: Hepatocyte nuclear factor 3-alpha (Foxa1, Mus musculus, UniProt P35582, residues 1-468, full length assumed)
UniProt P35582, sequence (whole entry, looked up): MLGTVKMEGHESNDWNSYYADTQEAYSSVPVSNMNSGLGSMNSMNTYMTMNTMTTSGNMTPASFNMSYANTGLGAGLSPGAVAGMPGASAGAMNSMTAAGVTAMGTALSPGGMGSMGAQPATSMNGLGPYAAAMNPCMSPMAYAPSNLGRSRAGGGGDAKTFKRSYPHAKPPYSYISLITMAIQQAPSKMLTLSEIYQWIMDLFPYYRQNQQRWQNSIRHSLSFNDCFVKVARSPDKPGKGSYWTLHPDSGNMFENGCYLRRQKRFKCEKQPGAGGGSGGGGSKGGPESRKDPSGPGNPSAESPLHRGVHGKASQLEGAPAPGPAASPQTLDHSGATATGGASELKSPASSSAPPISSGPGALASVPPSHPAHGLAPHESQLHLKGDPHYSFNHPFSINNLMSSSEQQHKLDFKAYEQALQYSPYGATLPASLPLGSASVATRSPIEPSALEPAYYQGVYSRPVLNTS
Method: EMSA with sequencing
Molecule type: double-stranded DNA, one strand shown
Sample: in vitro
Tested at: 10 and 20 nM
Notes: whole designed probe, mean of two concentrations, ends assumed
Baseline: negative control set to 0
Direction: higher = stronger binding
Quantity: normalised bound fraction
Constant ends, left off below: GTGAGCGGTGCCCATTGATGGGGAAC … TTTCACTGGGATCGTGGGGAC
TCATATGGCTCAGTTGGAATATTATTTTTTCTGTGACACTTCCTTTATTCCTCTGATCATATATAAATATTGTTCTACTCTCAGCATCTCCATATTTACTTAGTAGTATGTAGATTTCAAGCCACTCTAGAATTTTTGATTATTTATTTAGGTGTATTTGTTATCTCCTTTACTTGATTTTATGCTAGGTGGG: 0.53 ratio
CACCGCGCTCGCACGGCTTTGTCCGTGCTACAAAGCAGCCTGTTAAACTATTGGAACTAATGCGCCGCAGCTGCGCGAGTGACTTCTGCTGCTTATGTACATAAAAAGTCCTGTAACCATGGGGGAGGGCTCAGATGCCTGCTGCTGGGTTGTTTGGCTAGTCTTTCCATTTGCTTATTCCTGAATCCAAAGG: 0.324 ratio
GATTTTTGGGGATTTTTGAAAATAGCCCTATGTCTTGGATATGAGTCACAAATTGCCCCCCCCCCCACGTTTTCGTCATTTGTCTCCAAGCTCTGTTTACATTGGTGTTTGCCGTGCAGAAGTTTTTCTTTAATGTAATAAAATGTAGCCATCTTTTTTAAAATGACCTCTGGACTTCATGTGTTTGGAGTTT: 0.354 ratio
GCCAAGCTGTGCTCATGATCACATGGGAGGGAGGTGACAATGGAAAGCAGATAAATGAACTATTGCAGCCAATTGATGAGCACAGAGAGAGGCTGTTTACTGAATGTAGGCAGATAGGACCTTACACAATATCCCAGAGATCAACTTACCCCAGCACGGCTTGGACTTAGCAGAGAGGACCAATGGACCTGAA: 0.012 ratio
ACCCATGTTTTAATAATCCAGAACATCAGTTGAGTACAAAATCTCTTTTTCTAATTAAGAATGTTTGACCACAAGAGGGAGTTCCTTGCCAACTGTTTACTTAGCCTCAGCAGATATGATGGGCCAGAATTTACACAGAAAAATACCTTCAAATATATTTAGTTTCTTCAGTGCTTTTAGATTGAGAAAATGA: 0.428 ratio
TCAGTGTCAAGAAGTATTTGCCAATTTCTATGAAACTGTGAACGTAAAGAAAGGCCTGTGAGTCATAAGTACAGGAGAGGAAATTAACTGCAATATTTACTGTGCAGATTCTGATTCACTACTGTTTTGGGACAAAGCCTGGTTGCTGTTAGCAGATGCATTTACATTCTGCTGGAAGCTCAATCTTATCAAG: 0.0918 ratio
TCTCTGCATTCCAAGCCGTTGCACCTGAACTCCCAACAATAACAGGGCGCTCTGAGACCTACCAGATGTACACAATGAATATCTTTATTTCCTTATTTATTTTTAGGTTTATGGGATTGTCCTGCTCCCTTTGAAGAGCAGGGATCATTATCCCCATTTTACAGATGGGGAAACAGAGACCTGGAGAAACATG: 0.251 ratio
TTGATCTAGTCTCAATTACACCCTTGACTTAAGCCATTTTTCATGTACCACCCTAGTCTTTATCTGAATCACACATATCAGTTATAATATTCCTTGTTTACTCATTTGTGACTTTTCTAGAAGCATTGGGGTATCATGTGAACTTCATGTTTTCTTCCCGATACTGTTGATACTTTTAGATATGTCTTAATTA: 0.288 ratio

Series 2
Target: Homeobox protein Hox-C11, full length (HOXC11, Homo sapiens, UniProt O43248, residues 1-304)
UniProt O43248, sequence (whole entry, looked up): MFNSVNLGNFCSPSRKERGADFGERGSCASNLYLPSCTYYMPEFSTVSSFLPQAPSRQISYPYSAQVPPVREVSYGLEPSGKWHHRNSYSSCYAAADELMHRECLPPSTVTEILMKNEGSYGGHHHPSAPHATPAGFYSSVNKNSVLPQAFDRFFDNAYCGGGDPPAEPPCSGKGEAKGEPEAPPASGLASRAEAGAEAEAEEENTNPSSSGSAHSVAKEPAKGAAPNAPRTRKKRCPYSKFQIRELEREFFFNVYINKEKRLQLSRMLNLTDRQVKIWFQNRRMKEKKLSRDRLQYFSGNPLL
Method: protein-binding microarray
Molecule type: hairpin DNA
Sample: in vitro
Tested at: not given
Notes: whole hairpin DNA, median over replicate spots
Baseline: not given
Direction: higher = stronger binding
Quantity: median fluorescence
Constant ends, left off below: GAGGCCA … TGGCCTCACACTC
GGTCGGAAAAGCCTCCTGGCTTTTCCGACC: 10700 a.u.
GGTGGTAAAAGCCTCCTGGCTTTTACCACC: 9850 a.u.
GCGCGTAAAAGCCTCCTGGCTTTTACGCGC (5mC at 9 35): 10100 a.u.
GGTCGAAAAAGCCTCCTGGCTTTTTCGACC: 9480 a.u.
GGTCGTTAAAGCCTCCTGGCTTTAACGACC: 10700 a.u.
GGTCATAAAAGCCTCCTGGCTTTTATGACC: 8890 a.u.
GGCGGTTAAAGCCTCCTGGCTTTAACCGCC (5mC at 10 34): 9060 a.u.
CGTCGTAAAAGCCTCCTGGCTTTTACGACG (5mC at 8 36): 8970 a.u.

Series 3
Target: Histone acetyltransferase KAT6A, both winged helices, GST fusion (KAT6A, Homo sapiens, UniProt Q92794, residues 1-181)
Method: protein binding microarray
Molecule type: double-stranded DNA, one strand shown
Sample: in vitro
Tested at: not given
Notes: 8-mer, flanks averaged, mean of 2 arrays, mostly near background
Baseline: not given
Direction: higher = stronger binding
Quantity: E-score
Residues (chain): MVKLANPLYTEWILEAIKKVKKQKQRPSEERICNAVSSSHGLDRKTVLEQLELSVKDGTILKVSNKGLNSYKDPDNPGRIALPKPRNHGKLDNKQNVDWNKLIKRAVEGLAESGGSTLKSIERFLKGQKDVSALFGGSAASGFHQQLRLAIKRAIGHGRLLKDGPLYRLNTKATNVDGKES
GTATGCCA: -0.221
CGTGCTGA: -0.0144
AAACGGTA: 0.217
GAAATGGA: -0.143
CATAATAA: -0.0752
CATCTAAG: -0.113
AGATTCCA: -0.062
CGGGCCAA: 0.0671

Single results of other studies
COc1ccccc1-c1nc(CN(C)S(=O)(=O)c2c(C)cc(C)cc2C)c(C)o1 — remaining compound (mouse, microsomes or S9; 2 µM, 0.5 h): 0.00619%
